# Measurements gathered from unrelated publications.
# Parts stem from different laboratories: compare values within a part only. Substitutions count along the parent as printed.

# Sample 1 — method: competition protein-binding microarray; molecule type: double-stranded DNA, one strand shown; matrix: in vitro; tested at: 2 µM; added: Cbf1 competitor, 0.05 µM; direction: higher = stronger binding
# Target: Phosphate system positive regulatory protein PHO4, full length, GST-tagged (PHO4, Saccharomyces cerevisiae, UniProt P07270, residues 1-312)
# Setting: whole 60-bp probe, lowest competitor level
# Target sequence (chain): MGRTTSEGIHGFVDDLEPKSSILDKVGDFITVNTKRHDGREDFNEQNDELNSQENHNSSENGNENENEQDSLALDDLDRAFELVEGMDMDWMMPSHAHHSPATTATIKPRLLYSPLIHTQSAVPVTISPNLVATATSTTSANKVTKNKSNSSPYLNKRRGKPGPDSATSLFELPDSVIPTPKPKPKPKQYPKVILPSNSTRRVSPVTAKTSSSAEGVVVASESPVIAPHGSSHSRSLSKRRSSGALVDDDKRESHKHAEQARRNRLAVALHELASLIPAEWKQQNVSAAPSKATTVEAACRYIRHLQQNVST
Oligonucleotide,fluorescence intensity [a.u.]
CTTGCAGCTTTTTCTTTAAGGTAAAAATCATTTTGGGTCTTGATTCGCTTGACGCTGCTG,2700
CTTTCCCGATCTTTTCACGTGAAATTAGCACATTTGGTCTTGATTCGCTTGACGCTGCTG,9340
TGGGTTTCTGTGAACACCGTGCCAGACACCATTGACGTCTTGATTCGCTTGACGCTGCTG,7880
CTTGTCAAAATCCGTCACGTGGTGAAGGGTCTGGTTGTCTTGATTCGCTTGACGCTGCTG,16700
TTGTTGAGTAATCGGCACGTCACCGCACAACAGCCGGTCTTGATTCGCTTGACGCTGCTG,6680
CATACCCAACCTTGACACGTGGGTGAAGATATTTGTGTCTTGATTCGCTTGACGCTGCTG,19200
CGGGGTTAAGTTTGTCACCTGACTTGCTTGCAGCAGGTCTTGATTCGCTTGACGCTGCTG,3440
CATATTTATGACTGTCACATGATATTGAGGTTACTCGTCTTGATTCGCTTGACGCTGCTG,8210
AAAGCGGTAATTTTTCACGTGGACTCACATATCTATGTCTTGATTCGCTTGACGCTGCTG,13500
AGTGCTTTCCTTTGTCACCGGCGTAACGGATTCGCTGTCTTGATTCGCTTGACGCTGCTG,3000
TGCGCAACAACTTGCGACGTGGGTGTATGTCTAGAAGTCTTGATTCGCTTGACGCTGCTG,6700

# Sample 2 — method: RNA Bind-n-Seq; molecule type: RNA; matrix: in vitro; tested at: not given; baseline: input RNA pool; direction: higher = stronger binding
# Target: RING finger protein unkempt homolog, zinc fingers 1-6, GST-SBP tag (UNK, Homo sapiens, UniProt Q9C0B0, residues 30-357)
# Chain of UniProt Q9C0B0 (30-357, looked up): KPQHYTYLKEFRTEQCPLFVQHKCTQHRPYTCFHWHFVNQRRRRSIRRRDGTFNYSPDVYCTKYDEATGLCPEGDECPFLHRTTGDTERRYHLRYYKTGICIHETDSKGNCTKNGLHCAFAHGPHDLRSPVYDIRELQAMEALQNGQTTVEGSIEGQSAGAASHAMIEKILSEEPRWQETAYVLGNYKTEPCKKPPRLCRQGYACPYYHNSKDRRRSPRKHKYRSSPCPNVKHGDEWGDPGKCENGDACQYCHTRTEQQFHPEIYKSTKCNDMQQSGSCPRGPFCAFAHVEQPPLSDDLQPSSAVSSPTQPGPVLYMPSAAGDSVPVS
# Setting: RNA with constant flanks, human and mouse sites, ends assumed
Oligonucleotide,bound/input enrichment [ratio]
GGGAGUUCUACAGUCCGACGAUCCAUGUUAAAGAGCAUCACUUUGGGUCCUCAGGAAUGACAUUACAUGAACGCUUUACUAAAUACCUAAAGAGAGGAACUGAGCAGGAGGCAGCCAAAAACAAGAAAAGCCCAGAGAUACACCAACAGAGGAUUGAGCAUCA,0.407
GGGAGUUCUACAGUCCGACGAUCUCGCCUGUUCAGGACAUCGACACUCCAGAGGUUGAUUUGUACCAAUUACAAGUAAAUACACUUAGAAGAUACAAAAGACACUUCAAGCUUCCAACCAGACCAGGUCUAAAUAAAGCACAACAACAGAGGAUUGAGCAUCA,0.144
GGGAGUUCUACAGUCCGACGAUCUAUAUCACGCUGCCCCUGGCCUUGCUCUUCCUCAUCGUUCGAUACUUCUUUGAGCUGUACGUGGCUACACCACUGGCUGCCCUCUUGAACAUAAAGGAGAAAACUCGGCUGCGGGCACCUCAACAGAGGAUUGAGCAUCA,0.11
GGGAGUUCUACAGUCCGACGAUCACGAUCAUUUGUGGGCAUCCCCUGUUGUCCAGGAGAACCCCGCUUCGGCCUCCCCAACCCAUUUCACUUCCCUCCACGAUCCCGCUCUCGCGGAGGCGAGGAGAUUCCCAGACAGAAGCCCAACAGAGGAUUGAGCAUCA,0.152
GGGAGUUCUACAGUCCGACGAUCAGCCAGCCCCUGAGGCUACUAGAAGCUGUGCUUCAGGAGUGCCACAACACCUUCACCGCCUGCUUUCACUCCUUCUACCCAACGCCGGCACUACAGUGGGCAUGCCUCUGUGAUCUGCUCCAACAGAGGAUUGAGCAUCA,0.238
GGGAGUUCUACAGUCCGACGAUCACUUGUUGUGUGUGUGCGUGUGUGUGUGUGUGUGUGUGUGUGUGUGUGUGUUCUGUACCCACUAGGAUUUGUUUAGGUGCCCAUUGCAUCUUUUUGUGCUAUGGAGUUGUUUACAUUAAGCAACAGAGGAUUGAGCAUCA,67.2
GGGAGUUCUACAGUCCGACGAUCCAGUUAAAGUAUCAGAGGAUCUUGGAGCGCCUGGAAAAGGAGAACAAAGAGCUGCGGAAGCUGGUGCUGCAGAAGGACGACAAAGGCAUCCACCACAGGAAGCUCAAGAAAUCUUUGAUUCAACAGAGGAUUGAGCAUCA,0.192
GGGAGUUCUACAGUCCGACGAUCAAAAAACCCCGAUUUUAGAUAUUUAGGCUUUCAUUCUAGUUUGGUUUUGUCUUUUCUUGUUUAGAUACCACUUAAAUUCUUGGCAUUUUAGUAAGCAAGCUACCUUUUUAUGGAUGUUAGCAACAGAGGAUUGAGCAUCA,15

# Sample 3 — method: RNA Bind-n-Seq; molecule type: RNA; matrix: in vitro; tested at: 1 µM; setting: whole 134-nt RNA, ends assumed; added: 150 mM KCl; baseline: input library; direction: higher = stronger binding
# Target: Ras GTPase-activating protein-binding protein 1, RRM domain (G3BP1, Homo sapiens, UniProt Q13283)
# Chain of UniProt Q13283 (whole entry, looked up): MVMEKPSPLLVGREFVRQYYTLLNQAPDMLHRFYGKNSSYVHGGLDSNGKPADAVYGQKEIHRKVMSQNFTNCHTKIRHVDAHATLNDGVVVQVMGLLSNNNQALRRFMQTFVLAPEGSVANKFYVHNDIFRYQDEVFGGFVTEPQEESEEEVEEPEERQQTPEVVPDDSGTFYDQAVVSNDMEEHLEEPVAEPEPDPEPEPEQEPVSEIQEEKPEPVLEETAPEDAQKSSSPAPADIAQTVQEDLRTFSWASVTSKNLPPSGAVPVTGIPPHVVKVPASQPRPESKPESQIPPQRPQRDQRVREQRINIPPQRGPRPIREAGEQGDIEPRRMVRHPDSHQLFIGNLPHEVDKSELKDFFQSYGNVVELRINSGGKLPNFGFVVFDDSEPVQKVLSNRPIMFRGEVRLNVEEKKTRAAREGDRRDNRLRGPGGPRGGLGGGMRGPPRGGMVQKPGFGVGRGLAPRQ
Oligonucleotide,log2 enrichment
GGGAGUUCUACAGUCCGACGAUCUCCUUUGUGUUUACAAAAGCACUGACCCUUUACCUUUUCUUUAGCAAGAAGAAUGGAAUGAACAUAAUGCCAAAAUAAUUAAAUAUAUAAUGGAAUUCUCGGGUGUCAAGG,0.0123
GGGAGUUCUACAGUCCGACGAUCUGGGAGGUGGAUUUUGUUUAUUUUUUUAGCUCAUUUCCAGGGGUGGGAAUUUUUUUUUAAUAUGUGUCAUGUAUAAAGUUGUUUUUGAAAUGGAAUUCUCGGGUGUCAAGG,2.19
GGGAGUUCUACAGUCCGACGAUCCAAGUCCUGUGCUACACAUCGUAUGUACCGAAUCGGGGCCGGGGCCGGGGCCGGGGAAAGUAUUAUGUUACGCCGUUCGGAUCUGCACUUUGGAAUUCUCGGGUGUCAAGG,-1.45
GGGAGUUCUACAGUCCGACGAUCGUCCUGUGCUACACAUCGUAUGUACCGAAUCAAACCCAAAUUUUUUUAAAUUUUUAAAAAAGUAUUAUGUUACGCCGUUCGGAUCUGCACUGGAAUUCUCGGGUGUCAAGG,-0.857
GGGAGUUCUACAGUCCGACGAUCAGUCCUGUGCUACACAUCGUAUGUACCGAAUCGGGAAAAAGGGUUUUUGGGUUUGGGAAAGUAUUAUGUUACGCCGUUCGGAUCUGCACUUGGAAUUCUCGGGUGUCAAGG,0.218
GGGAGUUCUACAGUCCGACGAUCAAGUCCUGUGCUACACAUCGUAUGUACCGAAUCGGGGUUUGGUUUGGGGUUUGGGGAAAGUAUUAUGUUACGCCGUUCGGAUCUGCACUUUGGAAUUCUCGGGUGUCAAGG,-0.0411
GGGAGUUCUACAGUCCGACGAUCUAACUUUAGAGGAGGAUCUGAUGGAUAUGGCAGUGGACGUGGAUUUGGGGAUGGCUAUAAUGGGUAUGGAGGAGGACCUGGAGGUGUCAAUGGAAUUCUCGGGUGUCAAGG,-0.278
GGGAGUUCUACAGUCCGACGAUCGCAGGAAGUAAAAACAAAUGGAAAUGCUUCAAAUAGUGGCAGGGGUGGGGGUUGCUAAGGAAAGGGUGGGAUGGGAGUGGGUAAAGAGUUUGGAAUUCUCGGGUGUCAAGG,1.25

# Sample 4 — target: CCNE1, cyclin fold, Cln2 fusion (human); method: yeast growth competition, sequencing; matrix: yeast; setting: strong parent motif; baseline: not given; direction: higher = stronger binding
# Parent: SCAPER docking peptide (human); SNARRSLNFGGST
Change,normalised enrichment score
SNMRRSLNFGGST [A3M],0.878
SNARRSLNEGGST [F9E],-0.233
SNARRSLNHGGST [F9H],-0.195
SNARRSLNFGRST [G11R],-0.0761
SNCRRSLNFGGST [A3C],0.476
SNARRSLMFGGST [N8M],0.505
SNARWSLNFGGST [R5W],0.154
SNFRRSLNFGGST [A3F],0.998
SNARRSLNSGGST [F9S],-0.421
SNARRSLNFCGST [G10C],0.492
SNARTSLNFGGST [R5T],0.278
SNARRSLNFGGSD [T13D],2.15
SNARRSLNFGGTT [S12T],0.861
SNARRSLNFGGSR [T13R],1.14

# Sample 5 — method: universal PBM; molecule type: double-stranded DNA, one strand shown; matrix: in vitro; tested at: not given; direction: higher = stronger binding
# Target: Sal-like protein 4, full length isoform B (SALL4, Homo sapiens, UniProt Q9UJQ4-2, residues 1-616)
# Setting: 8-mer, flanks averaged, mean of replicates
Oligonucleotide,E-score
GAGAACTA,0.133
AGATGTTA,0.138
CAGTCCAA,-0.123
GAACCTCC,-0.238
CGGTGGAC,-0.243
AAGAAAGA,0.107
GGTCGCTA,-0.273
CACTCCGC,-0.277
ACTACCCT,-0.0534
GTCGGATA,-0.00514
CGAGTCGA,-0.121
CGATGCTC,-0.306
AGTTGGAT,0.179
GCTCTGAA,-0.0628
GAGGCGAA,-0.135
CGCTTAAA,0.0139
